{"data": "Assay results gathered from unrelated publications", "note": "Each numbered part is a random draw from the data of one study; scales do not carry over between parts."}
{"data": "Sample 1", "target": "Histone acetyltransferase KAT6A, both winged helices, GST fusion (KAT6A, Homo sapiens, UniProt Q92794, residues 1-181)", "method": "protein binding microarray", "form": "double-stranded DNA, one strand shown", "matrix": "in vitro", "concentration": "not given", "setting": "8-mer, flanks averaged, mean of 2 arrays, mostly near background", "relative to": "not given", "direction": "higher = stronger binding", "Residues (chain)": "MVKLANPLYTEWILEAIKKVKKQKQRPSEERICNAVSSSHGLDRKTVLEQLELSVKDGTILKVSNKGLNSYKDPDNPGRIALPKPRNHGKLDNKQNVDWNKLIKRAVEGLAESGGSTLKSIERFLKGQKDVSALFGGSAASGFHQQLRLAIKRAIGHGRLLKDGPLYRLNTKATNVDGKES"}
{"Sequence": "ACTAAAGT", "E-score": -0.237}
{"Sequence": "AAGATCAA", "E-score": -0.0637}
{"Sequence": "CAAAACTG", "E-score": -0.121}
{"Sequence": "GACTACAC", "E-score": -0.0185}
{"Sequence": "AAAATTCA", "E-score": -0.131}
{"Sequence": "TATCGATA", "E-score": -0.0138}
{"Sequence": "GAGACCTA", "E-score": -0.0653}
{"Sequence": "AAGGACGT", "E-score": -0.181}
{"Sequence": "AGGCGCCG", "E-score": 0.331}
{"Sequence": "ACATTCTC", "E-score": -0.04}
{"Sequence": "AACCATTC", "E-score": 0.0204}
{"Sequence": "CTGCTAGA", "E-score": -0.0333}
{"Sequence": "ACCTGCAG", "E-score": -0.145}
{"Sequence": "ACCTGGCA", "E-score": -0.203}
{"Sequence": "ACGTATTA", "E-score": 0.00177}
{"Sequence": "ATTGCGCG", "E-score": 0.381}
{"Sequence": "CTGCGTTA", "E-score": 0.0522}
{"Sequence": "AGCTTACA", "E-score": -0.144}
{"Sequence": "TTGACAAA", "E-score": -0.0523}
{"data": "Sample 2", "target": "RNA binding protein fox-1 homolog 2, RRM domain, GST-SBP tag (RBFOX2, Homo sapiens, UniProt O43251-10, residues 100-194)", "method": "RNA Bind-n-Seq", "form": "RNA", "matrix": "in vitro", "concentration": "365 nM", "setting": "natural RNA segment, single round, ends assumed", "relative to": "no-protein control", "direction": "higher = stronger binding", "all sequences stand within": "GGGAGUUCUACAGUCCGACGAUC … UGGAAUUCUCGGGUGCCAA", "Target sequence (chain)": "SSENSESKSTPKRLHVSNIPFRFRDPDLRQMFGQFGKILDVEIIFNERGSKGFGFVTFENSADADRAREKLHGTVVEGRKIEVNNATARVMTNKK"}
{"Sequence": "AUGGUCACACACCAGCACUUUAUACACUUCUGGCUCACAGGAAAGUGUCUGCAGUAGGGGACCCAGAGUCCCAGGCCCCUGGAGUUGUUUUCGGCAGGGGCCUUGUCUCU", "RBNS enrichment (R)": 0.304}
{"Sequence": "UCGUCGUCCUCCUGCCCACCCGCUGACAUUAUUUUUAUAUAGCUAAAGAGGUCAACAGCACGGGCAGGGAGCCAAGGGGCUGGGUGCUCAGACUCUUAACAAUAUCCCAA", "RBNS enrichment (R)": 0.412}
{"Sequence": "CUGACUUCUGCGGACAGCAAUUUGGUAGGUAGUGAUUAACUGUGAAUAAACGUACAAUGAGUUCUUACUGUGUGUCUUCAUUUCUCCCUGAUGGUGUUUUCAGUUUAUUU", "RBNS enrichment (R)": 0.545}
{"Sequence": "CCAUAUGGAGCCAGACAUUGGGACGCACGCAUGUGAUUGUGUGUGCACGCAUGUGUGUGUGUGCACGCACUGGGCUGGGCCAAGCGACUGAGGAUUCGCUUGGGAACGGG", "RBNS enrichment (R)": 3.96}
{"Sequence": "AAUAAUACUACUUCUCUUUCCUUAUCUGAAUCUCUAACACCUCCAUUAGAAAAGUAGAGUUUGGAGAAAUCAUCAGAAACUAUUUUUAUUCCAAACAAAAUAACCGUAGA", "RBNS enrichment (R)": 0.9}
{"Sequence": "AGCGAGAUCGAGGCAGAGAAACGUAAUUUGUCCAUCACAUGGGGUUUGGAAAUAAAUAUAUUAUUUGACAAUAUUAUUGCAUUUUAAAUCUCCUUUCUCUUUUAUAGCUC", "RBNS enrichment (R)": 0.355}
{"Sequence": "AUUAAGAAAUUGGUUAUUAUGCUUACUGUUCUAAUCUGGUGGUAAAGGUAUUCUUAAGAAUUUGCAGGUACUACAGAUUUUCAAAACUGAAUGAGAGAAAAUUGUAUAAC", "RBNS enrichment (R)": 1.16}
{"Sequence": "UGUUGUCUCCUCCUAAUGUCCACCUCAGUGACGAGGUUCCACACUGUCUCCUCACCUCUUGUCACGGCUUCCCUAUGUGGAUAUAUAAAGAACCAAACUGAUUCGCUGUU", "RBNS enrichment (R)": 0.608}
{"data": "Sample 3", "target": "Ras GTPase-activating protein-binding protein 1, full length (G3BP1, Homo sapiens, UniProt Q13283)", "method": "RNA Bind-n-Seq", "form": "RNA", "matrix": "in vitro", "concentration": "200 nM", "setting": "whole 134-nt RNA, ends assumed", "with": "150 mM LiCl", "relative to": "input library", "direction": "higher = stronger binding", "library": "7-deaza-guanosine replaces G", "all sequences stand within": "GGGAGUUCUACAGUCCGACGAUC … UGGAAUUCUCGGGUGUCAAGG", "UniProt Q13283, sequence (whole entry, looked up)": "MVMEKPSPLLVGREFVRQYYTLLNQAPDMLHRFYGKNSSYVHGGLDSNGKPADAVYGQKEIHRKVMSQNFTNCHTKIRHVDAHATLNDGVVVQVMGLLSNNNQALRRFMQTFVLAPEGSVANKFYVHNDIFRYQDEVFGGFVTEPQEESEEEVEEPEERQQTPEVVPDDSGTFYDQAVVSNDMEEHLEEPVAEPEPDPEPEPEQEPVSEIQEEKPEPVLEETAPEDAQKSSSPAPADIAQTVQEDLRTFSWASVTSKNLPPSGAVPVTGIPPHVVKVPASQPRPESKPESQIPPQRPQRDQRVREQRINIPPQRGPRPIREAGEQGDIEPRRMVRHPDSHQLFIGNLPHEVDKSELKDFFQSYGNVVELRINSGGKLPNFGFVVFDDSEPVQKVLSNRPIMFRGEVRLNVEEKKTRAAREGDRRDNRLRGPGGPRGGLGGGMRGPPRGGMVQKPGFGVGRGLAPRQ"}
{"Sequence": "CUGUGCUACACAUCGUAUGUACCGAAUCAAAUUUUUUUAAACCCCCCCAAAUUUUUUUAAAAAAGUAUUAUGUUACGCCGUUCGGAUCUG", "log2 enrichment": 0.71}
{"Sequence": "CAAGUCCUGUGCUACACAUCGUAUGUACCGAAUCGGGGAAAGGAAAGGGAAAGGGGAAAGUAUUAUGUUACGCCGUUCGGAUCUGCACUU", "log2 enrichment": -0.611}
{"Sequence": "AGUCCUGUGCUACACAUCGUAUGUACCGAAUCGGGGAAAGGGGUGGGGAAAAAGGGGAAAGUAUUAUGUUACGCCGUUCGGAUCUGCACU", "log2 enrichment": 0.205}
{"Sequence": "GCAGCAAGUAAAAACAAAUGGAAAUGCUUCGGAUAGUGGCAGGGGUGGGGGUUGCUAAGGAAAGGGUGGGAUGGGAGUGGGUAAAGAGUU", "log2 enrichment": -0.105}
{"Sequence": "CACAGACAACACGCACCCACAAAAACACAGAGGGAAGGGGUUGGGAUGGGGACAGGGUGCACAGCAGGGCGGGGUAGGACCCCAGCCCCU", "log2 enrichment": -0.394}
{"Sequence": "ACCAUGCAGGUGGGCAUCUUUGGGAAGUGGGGCAUGGGGGGGAUAGGGAGGGGGGUAACACUUUGGGAACAGGUGGUCCCAGGUCGUUUC", "log2 enrichment": 0.173}
{"Sequence": "UCCUGUGCUACACAUCGUAUGUACCGAAUCGGGGUGGGGUUUUUUUGGGGAAAAAGGGGAAAGUAUUAUGUUACGCCGUUCGGAUCUGCA", "log2 enrichment": -0.258}
{"Sequence": "UCAAGUCCUGUGCUACACAUCGUAUGUACCGAAUCGGGUUUGGUUUGGUUUGGGAAAGUAUUAUGUUACGCCGUUCGGAUCUGCACUUCC", "log2 enrichment": -0.556}
{"data": "Sample 4", "target": "Centromere-binding protein 1, full length, His-tagged (CBF1, Saccharomyces cerevisiae, UniProt P17106, residues 1-351)", "method": "competition protein-binding microarray", "form": "double-stranded DNA, one strand shown", "matrix": "in vitro", "concentration": "2 µM", "setting": "whole 60-bp probe, lowest competitor level", "with": "Pho4 competitor, 0.05 µM", "direction": "higher = stronger binding", "all sequences stand within": "… GTCTTGATTCGCTTGACGCTGCTG", "UniProt P17106, sequence (whole entry, looked up)": "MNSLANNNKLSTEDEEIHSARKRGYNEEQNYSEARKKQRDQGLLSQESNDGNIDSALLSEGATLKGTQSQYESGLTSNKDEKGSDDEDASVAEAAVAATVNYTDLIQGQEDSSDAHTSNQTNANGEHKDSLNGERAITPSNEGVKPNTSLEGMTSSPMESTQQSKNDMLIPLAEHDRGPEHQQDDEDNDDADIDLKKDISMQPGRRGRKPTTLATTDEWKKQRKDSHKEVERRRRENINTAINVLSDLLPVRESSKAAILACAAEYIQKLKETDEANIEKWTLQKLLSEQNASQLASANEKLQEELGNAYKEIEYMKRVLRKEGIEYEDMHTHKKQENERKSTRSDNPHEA"}
{"Sequence": "ATATGGATTGATTTTCACATGTATCGTTTATGAGTA", "fluorescence intensity [a.u.]": 178}
{"Sequence": "CGCTATGCCATCAGTGATGTGATGAGCAATGCCGGA", "fluorescence intensity [a.u.]": 62.6}
{"Sequence": "TATTTAACTCCATTTCACGTGATGGGTTTGAAAGAA", "fluorescence intensity [a.u.]": 3040}
{"Sequence": "CTTCTGTAAATTTGCGCAGTGGGTGGACGCGCCCCG", "fluorescence intensity [a.u.]": 79.1}
{"Sequence": "ATTCTAACCCTGATGAACGTGTCGGTCAACTTACCC", "fluorescence intensity [a.u.]": 65.9}
{"Sequence": "CAAAAGAAAAAGTTTGACGTGATGGATCCATCTAAC", "fluorescence intensity [a.u.]": 98.9}
{"Sequence": "CACAGTGTTCCGAGTCACGTGCTGTTTCAGTCCTCC", "fluorescence intensity [a.u.]": 12500}
{"Sequence": "CTTCTGTAAATTTGAATCGTGGGTGGACGCGCCCCG", "fluorescence intensity [a.u.]": 77.3}
{"Sequence": "CGTCCTAGTGATTGCTGTGTGGGTGCCATGAGGAAG", "fluorescence intensity [a.u.]": 96.7}
{"Sequence": "CGCAGTCAGCGAGCCCACGTGCTTGTGTTGACTGGA", "fluorescence intensity [a.u.]": 866}
{"Sequence": "TACGAGCAAATTTTGCACGTATAGGGCGCCTATAAC", "fluorescence intensity [a.u.]": 86.9}
{"Sequence": "CATACCCAACCTTGTCACCCAACTTAAGATATTTGT", "fluorescence intensity [a.u.]": 78.8}
{"Sequence": "TAGGTGTTAAGAAAGCACGTGCCGATAGGGGTTTAG", "fluorescence intensity [a.u.]": 3250}
{"Sequence": "CTTTCCCGATCTTGCAGAGTGGGTGTAGCACATTTG", "fluorescence intensity [a.u.]": 66.2}
{"Sequence": "AAAGCGGTAATTTGCTCGGTGGGTGCAGATATCTAT", "fluorescence intensity [a.u.]": 81.2}
{"Sequence": "ATTCTATTGCAGAATGTTGTGATATTTCCAAGGTCT", "fluorescence intensity [a.u.]": 94.6}
{"Sequence": "AAGACCTATTTCTCAGACGTGCTAATCTCCCGTCAA", "fluorescence intensity [a.u.]": 66.7}
{"Sequence": "TCCAACCTGCAAGGGGTCGTGCCAGTGACGAAAAGA", "fluorescence intensity [a.u.]": 84.4}
{"Sequence": "CATACCCAACCTTGTCACCCTACTTAAGATATTTGT", "fluorescence intensity [a.u.]": 64.9}
